Published values gathered from unrelated publications.
Lines come from different studies, so protocols differ. Numbers after ± are the reported error.

For `CO[C@@H](C[C@H]1C(C)=CC[C@@H]2[C@]3(C)C[C@H](O[C@@H]4O[C@@H](C)[C@H](O)[C@@H](O)[C@H]4O)[C@@H](O)C(C)(C)[C@H]3CC[C@]21C)[C@H](N)C(=O)O`, the stability time was greater than 4 h (simulated gastric fluid with pepsin; 1 µM, pH 1.2, 37 °C).
With `NCCCC(=O)OCC(=O)c1ccc(O)c(F)c1F.O=C(O)C(F)(F)F` the quantum yield was 0.11 (photolysis, refers to: disappearance of compound; aqueous HEPES buffer with LiClO4; pH 7.3).
`Cn1c(=O)oc2ccc(-c3ccc(CC(C#N)NC(=O)C4CNCCCO4)c(F)c3)cc21` (stereo not shown): “subjects with TEAE” 8.3% (refers to: total protein decreased; human; 40 mg single dose, fasted).
`CN1C(=O)[C@@H](Cc2ccc(O)c(I)c2)NC(=O)CNC(=O)[C@H](Cc2ccc3ccccc3c2)NC(=O)[C@H](CCCNC(=N)N)NC(=O)[C@H]1CCCNC(=O)c1ccc(CNC(=O)CN2CCN(CC(=O)O)CCN(CC(=O)O)CCN(CC(=O)O)CC2)cc1` [lutetium-177 labelled]: “total absorbed dose” 0.21 mGy/MBq (1; human, extrapolated from mouse, kidneys).
Under “number of metabolites”, `CCc1nc(N)nc(N)c1C#CC(C)c1cc(-c2cc(C)nc(C)c2)ccc1Cl` (stereo not shown) is recorded as 10 (pooled human hepatocytes; 10 µM, 4 h).
`CCCC[C@H](NC(=O)CNC(=O)CNC(=O)CN1CCN(CC(=O)O)CCN(CC(=O)O)CCN(CC(=O)O)CC1)C(=O)N[C@H]1CC(=O)NCCCC[C@@H](C(N)=O)NC(=O)[C@H](Cc2c[nH]c3ccccc23)NC(=O)[C@H](CCCNC(=N)N)NC(=O)[C@@H](Cc2ccccc2)NC(=O)[C@H](Cc2c[nH]cn2)NC1=O` [copper-64 labelled] gave an uptake ratio of 5.57 (female C57 mouse, B16/F1 melanoma; intravenous, 0.037 MBq, 24 h; baseline: tumour over blood).
`[11CH3]c1ccc2nc(C3CCC3)n(-c3ccc4[nH]ncc4c3)c2n1`: “absorbed radiation dose” 2.3 µSv/MBq (human male, thymus).
With `O=C(Nc1ccc(N2C(=O)c3cccc([18F])c3C2=O)c(Cl)c1)c1ccccn1` the metabolized fraction was roughly 90% (Sprague-Dawley rat, arterial plasma; intravenous, 0.08333 h).
`CCCC(CCC)NC(=O)c1ccc(OS(=O)(=O)O)c(OC)c1` has a Cmax ratio of 2.84 (female Sprague-Dawley rats, plasma; oral, 200 mg/kg of parent drug; baseline: 200 over 20 mg/kg dose).
`CCCC[C@H](NC(=O)CNC(=O)CNC(=O)CN1CCN(CC(=O)O)CCN(CC(=O)O)CCN(CC(=O)O)CC1)C(=O)N[C@H]1CC(=O)NCCCC[C@@H](C(N)=O)NC(=O)[C@H](Cc2c[nH]c3ccccc23)NC(=O)[C@H](CCCNC(=N)N)NC(=O)[C@@H](Cc2ccccc2)NC(=O)[C@H](Cc2c[nH]cn2)NC1=O` [gallium-67 labelled]: “tumour to tissue ratio” 14.8 (female C57 mice, B16/F1 melanoma; intravenous, 0.037 MBq, 0.5 h; baseline: tumour over liver).
`C#CCOc1ccc(/C=C2\SC(=O)N(CC(=O)NCc3ccccc3)C2=O)cc1`: “Kirkwood-Buff integral G1,3” -264 cm³/mol (inverse Kirkwood-Buff integrals; binary solvent mixture; 298.15 K, mole fraction x1 0.40).
`Oc1ccc2ccccc2c1/N=N/c1ccccc1` has a stability deviation of 2.3% (rat whole blood; 5.0 µg/L, 30 days, -20 °C, long-term storage).
`CC(=O)N[C@H](CC(=O)O)C(=O)N[C@H](Cc1c[nH]c2ccccc12)C(=O)N[C@H](Cc1ccccc1)C(=O)N[C@H](CCCCN)C(=O)N[C@H](C)C(=O)N[C@H](Cc1ccccc1)C(=O)N[C@H](Cc1ccc(O)cc1)C(=O)N[C@H](CC(=O)O)C(=O)N[C@H](CCCCN)C(=O)N[C@@H](C(=O)N[C@H](C)C(=O)N[C@H](CCC(=O)O)C(=O)N[C@H](CCCCN)C(=O)N[C@H](Cc1ccccc1)C(=O)N[C@H](CCCCN)C(=O)N[C@H](CCC(=O)O)C(=O)N[C@H](C)C(=O)N[C@H](Cc1ccccc1)C(N)=O)C(C)C` has an AUC(0-t) of 47.4 ng·h/mL (statin-treated high-risk CHD women, plasma; oral, 300 mg daily, day 13, 0 to 8 h, mean, undetectable set to 0).
`CCOC(=O)c1ccc(-n2cc(Cn3c(=O)c(Cc4ccccc4)nc4ccccc43)nn2)cc1` gave a safe concentration of 0.016 ± 0.002 µM (MTT; rat primary colonocytes, Albino rat, male; 72 h, concentration at 100% viability).
With `NC12CNCCNCC(NCc3ccc(CNC(=O)CCCC(=O)NCc4ccc(-c5nncnn5)cc4)cc3)(CNCCNC1)CNCCNC2.[64Cu+2]` the absorbed dose was 0.0394 rad/mCi (OLINDA dosimetry; bladder wall; pretargeting, 24 h interval).
With `COc1cc(NC(C)=O)c2c(c1O)-c1c(OC)c(OC)cc3c1C(C2)N(C)CC3` (stereo not shown) the remaining compound was 92.7 ± 0.2% (rat liver homogenate; 50 µg/mL, 24 h, room temperature, post-preparative storage).
With `CCCC[C@H](NC(C)=O)C(=O)N[C@H]1CC(=O)NCCCC[C@@H](C(=O)N[C@@H](C(=O)N2CCC[C@@H]2C(N)=O)C(C)C)NC(=O)[C@H](Cc2c[nH]c3ccccc23)NC(=O)[C@H](CCCN=C(N)N)NC(=O)[C@@H](Cc2ccc3ccccc3c2)NC(=O)[C@@H]2CCCN2C1=O` the plasma histamine was 18.1 ng/mL (healthy dogs, plasma; subcutaneous, 2.25 mg/kg per day, day 28, 2 h post-dose, median).
`CN1C(=O)c2cccc3c2C1=Cc1ccccc1N3Cc1cccc(NC2CCN([11CH3])CC2)c1` gave an SUV of 0.23 (PET/CT; C57BL/6 mouse male, heart; intravenous, 5 min).
For `CC(C)[C@H](NC(=O)[C@@H]1CCCN1C(=O)[C@H](CCCNC(=N)N)NC(=O)[C@H](CS)NC(=O)[C@H](Cc1c[nH]c2ccccc12)NC(=O)[C@H](CCCNC(=N)N)NC(=O)[C@@H](Cc1ccccc1)NC(=O)[C@H](Cc1c[nH]cn1)NC(=O)[C@H](CCC(=O)O)NC(=O)[C@H](CS)NC(=O)[C@H](CS)NC(=O)COCCOCCNC(=O)[C@@H]1CC(=O)N[C@@H](CCCNC(=N)N)C(=O)NCC(=O)N[C@@H](CC(=O)O)C(=O)N[C@H](Cc2ccc(O)cc2)C(=O)N1)C(N)=O` [technetium-99m labelled], the tissue/plasma ratio was 1.13 ± 0.08 (nude mice, M21 melanoma xenograft; intravenous, 0.037 MBq, 2 h; baseline: tumour over blood).
`Oc1ccc2ccccc2c1/N=N/c1ccc(/N=N/c2ccccc2)cc1` has a measured concentration of 0.22 µg/L (extracted rat blood QC samples; 0.2 µg/L, 12 h, room temperature, short-term stability).
Under metabolic stability, `N#Cc1ccc(-c2cc(=O)c3ccc4[nH]c(C(F)(F)F)nc4c3o2)cc1` is recorded as “stable” (liver microsomes).
With `NCCCC(=O)OCC(=O)c1cc(F)c(O)c(F)c1F.O=C(O)C(F)(F)F` the quantum yield was less than 0.01 (photolysis, refers to: rearranged acid appearance; aqueous HEPES buffer with LiClO4; pH 8.2).
`O=C(O)[C@@H]1C[C@@H](O)CN1C(=O)[C@@H]1CCCN1` gave a log beta of 4.06 (potentiometric titration; 40 °C, MAH-2 complex, together with: Fe(III)).
For `C[C@H](NC(=O)COC(=O)[C@H](C)NC(=O)CO)C(=O)O`, the depolymerization half-life was 12.4 days (water; pH 3, 37 °C).
`CN(C)c1cccc2c(S(=O)(=O)NCCCCC(=O)NO)cccc12` gave an emission wavelength of 500 nm (fluorescence).
`NC[C@@H](C(=O)Nc1ccc(-c2cn[nH]c2)cc1)c1ccccc1`: “conjunctival redness score” 0 (OECD 405 eye irritation; New Zealand White rabbit, eye; topical, 0.1%, 80 h (day 4), scale 0 to 3; direction not given).
With `Nc1ncnc2c1ncn2[C@@H]1O[C@H](COP(=O)(O)O)[C@@H](O)[C@H]1F` the metabolic loss was roughly 50% (human liver S9; 10 µM, 1 h, pH 7.4, 37 °C).
The AUC(0-last) of `CC(C)[C@H](NC(=O)CNC(=O)[C@H](CCC(N)=O)NC(=O)[C@H](C)N)C(=O)O` is reported as 8 µg·h/L (human, plasma; intravenous bolus, 3 mg/kg single, 2 min infusion, geometric mean).
Under “conversion to pyridinium salt”, `O=C(NC1CCCCC1)C(c1ccccn1)N(C(=O)CCl)c1cccc(F)c1` (racemic) is recorded as roughly 85% (HPLC-MS; DPBS; 6 h, 37 °C).
With `Cc1[nH]c(/C=C2\C(=O)Nc3ccc(F)cc32)c(C)c1NC(=O)CCN1CCN(C)CC1` the accuracy deviation was -10.9% (dog plasma; 80 ng/mL, 30 d frozen, -80 °C).
`COCCOCCOCCOCCOCCOCCOCCOCCC(=O)NCCCc1cc2cc3nc(cc4[nH]c(cc5nc(c(OC)c1[nH]2)C(=O)C5(C)C)cc4CCc1ccc(C(=O)O)cc1)CC3(C)C` — result for “B band absorption maximum”: 398 nm (DMF; room temperature).
`CCCn1c(=O)c2[nH]c(-c3ccc(OCC(=O)NCCNC(=O)CCCCCNC(=O)COc4ccc(/C=C/C5=[N+]6C(=Cc7ccc(-c8cccs8)n7[B-]6(F)F)C=C5)cc4)cc3)nc2n(CCC)c1=O` — result for “emission intensity ratio”: 0.07 (1 µM; baseline: HBS over methanol).
`Oc1cccc(-c2cccc(O)n2)n1.[Cl-].[Cl-].[Ru+2].c1cnc2c(c1)c1c(c3cccnc32)OCCO1.c1cnc2c(c1)c1c(c3cccnc32)OCCO1` has a logD of 1.33 (shake flask; octanol/acetate buffer; pH 5.00).
The metabolic bioavailability of `Brc1ccc(Nc2nc(NN=Cc3c[nH]c4ccccc34)nc(N3CCOCC3)n2)cc1` is reported as 57.2% (rat liver microsomes; 0.1 µM, pH 7.4).
Under “tumour to tissue ratio”, `CC(C)[C@H](NC(=O)[C@@H]1CCCN1C(=O)[C@H](CCCNC(=N)N)NC(=O)[C@H](CS)NC(=O)[C@H](Cc1c[nH]c2ccccc12)NC(=O)[C@H](CCCNC(=N)N)NC(=O)[C@@H](Cc1ccccc1)NC(=O)[C@H](Cc1c[nH]cn1)NC(=O)[C@H](CCC(=O)O)NC(=O)[C@H](CS)NC(=O)[C@H](CS)NC(=O)CNC(=O)[C@@H]1CC(=O)N[C@@H](CCCNC(=N)N)C(=O)NCC(=O)N[C@@H](CC(=O)O)C(=O)N[C@H](Cc2ccc(O)cc2)C(=O)N1)C(N)=O` [technetium-99m labelled] is recorded as 17.3 (C57 mouse, female, B16/F1 melanoma; intravenous, 0.037 MBq, 24 h; baseline: tumour over blood).
`CC[C@H](C)[C@H](NC(=O)[C@H](CC(C)C)NC(=O)[C@H](Cc1c[nH]c2ccccc12)NC(=O)[C@H](C)NC(=O)[C@@H](NC(=O)[C@H](Cc1ccccc1)NC(=O)[C@H](CC(=O)O)NC(=O)[C@H](CCCNC(=N)N)NC(=O)[C@H](C)NC(=O)[C@H](C)NC(=O)[C@H](CC(C)C)NC(=O)[C@H](C)NC(=O)[C@H](CC(=O)O)NC(=O)[C@H](CC(C)C)NC(=O)[C@@H](NC(=O)[C@@H](NC(=O)[C@H](C)NC(=O)[C@H](CC(C)C)NC(=O)[C@H](CCC(=O)O)NC(=O)[C@H](CO)NC(=O)[C@H](CO)NC(=O)[C@H](Cc1ccccc1)NC(=O)[C@@H](NC(=O)CNC(=O)[C@H](CCC(=O)O)NC(=O)CNC(=O)[C@@H](N)Cc1cnc[nH]1)[C@@H](C)O)[C@@H](C)O)[C@@H](C)CC)[C@@H](C)CC)C(=O)N[C@@H](C)C(=O)N[C@H](C(=O)N[C@@H](CCCCN)C(=O)N[C@H](C(=O)N[C@H](C(=O)N[C@@H](CC(=O)O)C(=O)N[C@@H](CCCCN)C(=O)N[C@@H](CCCCN)C(=O)N[C@@H](CCCCN)C(=O)N[C@@H](CCCCN)C(=O)N[C@@H](CCCCN)C(=O)N[C@@H](CCCCN)C(N)=O)[C@@H](C)O)[C@@H](C)CC)[C@@H](C)O` gave an effective half-life of 88.3 h (healthy humans, plasma; subcutaneous, 10 mg once weekly).
Under “redistribution rate constant (K21)”, `N=C(N)NCCC[C@@H]1NC(=O)[C@H](Cc2c[nH]c3ccccc23)NC(=O)[C@@H](CC2CCCCC2)NC(=O)[C@@H]2CCCN2C(=O)[C@@H](NC(=O)CCc2ccccc2)CCCNC1=O` is recorded as 0.32 h⁻¹ (C57BL/6J mouse, spinal cord; subcutaneous, 1 mg/kg, single dose, two-compartment model).
With `CC(C)(O)c1ncc([S@](N)(=O)=NC(=O)Nc2c3c(cc4c2CCC4)CCC3)s1` the AUC(0-tau) was 29400 ng·h/mL (healthy human; oral, 30 mg once daily, day 14, capsule formulation, geometric mean).
`CN(C)c1ccc(-c2nc3ccc(OCCCCCN4CCN5CCN(CC4)CC(=O)[O][Al]([18F])[O]C(=O)C5)cc3s2)cc1` has a stomach uptake of 1 ± 0.18 % injected dose/organ (ICR mouse; intravenous, dose not given, 2 min).
Under “radiative decay rate constant”, `COc1ccc(/C=C/c2ccc(-c3ccc(C)cn3)nc2)cc1` is recorded as 0.65 ns⁻¹ (TCSPC; hexanes).
With `NCCCC(=O)OCC(=O)c1ccc(O)cc1F.O=C(O)C(F)(F)F` the quantum yield was 0.06 (photolysis, refers to: disappearance of compound; aqueous HEPES buffer with LiClO4; pH 8.2).
`CN1CCC[C@]1(C)/C=C/S(=O)(=O)NC(=O)Nc1c2c(cc3c1CCC3)CCC2` gave an AUC(0-tau) of 51200 ng·h/mL (human, plasma; oral, 50 mg twice daily, day 14, tau 12 h, multiple ascending dose).
`CCC(c1nnnn1Cc1cccs1)N1CCN(c2nc3cc(N)cc(F)c3s2)CC1` (stereo not shown): “critical aggregation concentration” 45 µM (light scattering; RNase reaction buffer).

A few entries again:
With `NC12CNCCNCC(NCc3ccc(CNC(=O)CCCC(=O)NCc4ccc(-c5nncnn5)cc4)cc3)(CNCCNC1)CNCCNC2.[64Cu+2]` the absorbed dose was 0.0394 rad/mCi (OLINDA dosimetry; bladder wall; pretargeting, 24 h interval).
Under “conversion to pyridinium salt”, `O=C(NC1CCCCC1)C(c1ccccn1)N(C(=O)CCl)c1cccc(F)c1` (racemic) is recorded as roughly 85% (HPLC-MS; DPBS; 6 h, 37 °C).
